# Published values of several laboratories.
# A part holds a random share of what one study measured. Positions count from the first letter of the parent shown. pIC50: −log10 of the molar value.
# Sequence of UniProt O15075 (whole entry, looked up): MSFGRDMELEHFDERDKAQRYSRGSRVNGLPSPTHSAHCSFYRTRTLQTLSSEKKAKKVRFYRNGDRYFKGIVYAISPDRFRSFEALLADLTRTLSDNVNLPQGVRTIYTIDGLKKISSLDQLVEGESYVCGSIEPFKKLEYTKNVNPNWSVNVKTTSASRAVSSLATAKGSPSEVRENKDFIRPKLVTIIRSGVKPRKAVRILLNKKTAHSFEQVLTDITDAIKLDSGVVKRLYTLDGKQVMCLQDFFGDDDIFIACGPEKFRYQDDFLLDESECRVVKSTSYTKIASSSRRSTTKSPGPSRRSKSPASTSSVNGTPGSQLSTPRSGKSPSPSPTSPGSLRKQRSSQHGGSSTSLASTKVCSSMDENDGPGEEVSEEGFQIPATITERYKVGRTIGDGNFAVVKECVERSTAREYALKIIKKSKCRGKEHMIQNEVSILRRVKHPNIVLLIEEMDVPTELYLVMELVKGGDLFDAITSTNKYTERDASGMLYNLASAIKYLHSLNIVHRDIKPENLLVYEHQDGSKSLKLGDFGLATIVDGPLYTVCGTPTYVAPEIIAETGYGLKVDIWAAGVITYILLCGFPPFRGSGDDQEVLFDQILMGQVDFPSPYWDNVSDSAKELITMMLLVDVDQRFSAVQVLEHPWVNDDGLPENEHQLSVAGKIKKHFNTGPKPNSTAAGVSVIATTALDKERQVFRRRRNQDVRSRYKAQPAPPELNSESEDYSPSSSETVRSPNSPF
# Sequence of UniProt P16234 (whole entry, looked up): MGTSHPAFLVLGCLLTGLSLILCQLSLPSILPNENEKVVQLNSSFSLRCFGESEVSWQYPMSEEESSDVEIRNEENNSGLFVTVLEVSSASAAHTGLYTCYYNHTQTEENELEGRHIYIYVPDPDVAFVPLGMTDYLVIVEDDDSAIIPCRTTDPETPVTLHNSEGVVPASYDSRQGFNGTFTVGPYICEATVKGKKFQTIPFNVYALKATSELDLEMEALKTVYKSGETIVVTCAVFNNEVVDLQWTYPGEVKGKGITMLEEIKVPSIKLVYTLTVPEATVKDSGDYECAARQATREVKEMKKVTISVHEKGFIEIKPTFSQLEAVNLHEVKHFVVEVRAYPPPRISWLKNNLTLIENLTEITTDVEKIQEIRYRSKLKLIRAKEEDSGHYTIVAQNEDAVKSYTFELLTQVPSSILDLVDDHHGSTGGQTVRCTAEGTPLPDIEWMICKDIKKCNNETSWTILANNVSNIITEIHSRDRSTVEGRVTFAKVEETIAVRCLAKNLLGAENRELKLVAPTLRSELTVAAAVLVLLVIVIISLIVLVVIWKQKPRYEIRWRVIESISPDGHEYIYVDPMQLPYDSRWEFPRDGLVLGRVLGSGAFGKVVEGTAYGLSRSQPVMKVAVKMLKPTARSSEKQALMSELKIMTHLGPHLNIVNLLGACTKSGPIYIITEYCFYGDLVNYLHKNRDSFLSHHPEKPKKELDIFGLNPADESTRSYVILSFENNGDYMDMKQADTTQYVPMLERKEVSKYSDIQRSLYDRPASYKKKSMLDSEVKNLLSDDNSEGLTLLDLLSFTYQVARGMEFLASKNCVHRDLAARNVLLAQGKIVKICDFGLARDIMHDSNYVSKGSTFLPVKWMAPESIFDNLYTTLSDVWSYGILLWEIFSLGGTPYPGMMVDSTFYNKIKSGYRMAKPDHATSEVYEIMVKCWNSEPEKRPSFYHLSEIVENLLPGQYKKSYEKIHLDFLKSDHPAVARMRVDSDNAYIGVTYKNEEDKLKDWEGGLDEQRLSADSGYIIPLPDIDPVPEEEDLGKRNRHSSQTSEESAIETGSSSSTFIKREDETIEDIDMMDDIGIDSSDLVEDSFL
# Sequence of UniProt O75385 (whole entry, looked up): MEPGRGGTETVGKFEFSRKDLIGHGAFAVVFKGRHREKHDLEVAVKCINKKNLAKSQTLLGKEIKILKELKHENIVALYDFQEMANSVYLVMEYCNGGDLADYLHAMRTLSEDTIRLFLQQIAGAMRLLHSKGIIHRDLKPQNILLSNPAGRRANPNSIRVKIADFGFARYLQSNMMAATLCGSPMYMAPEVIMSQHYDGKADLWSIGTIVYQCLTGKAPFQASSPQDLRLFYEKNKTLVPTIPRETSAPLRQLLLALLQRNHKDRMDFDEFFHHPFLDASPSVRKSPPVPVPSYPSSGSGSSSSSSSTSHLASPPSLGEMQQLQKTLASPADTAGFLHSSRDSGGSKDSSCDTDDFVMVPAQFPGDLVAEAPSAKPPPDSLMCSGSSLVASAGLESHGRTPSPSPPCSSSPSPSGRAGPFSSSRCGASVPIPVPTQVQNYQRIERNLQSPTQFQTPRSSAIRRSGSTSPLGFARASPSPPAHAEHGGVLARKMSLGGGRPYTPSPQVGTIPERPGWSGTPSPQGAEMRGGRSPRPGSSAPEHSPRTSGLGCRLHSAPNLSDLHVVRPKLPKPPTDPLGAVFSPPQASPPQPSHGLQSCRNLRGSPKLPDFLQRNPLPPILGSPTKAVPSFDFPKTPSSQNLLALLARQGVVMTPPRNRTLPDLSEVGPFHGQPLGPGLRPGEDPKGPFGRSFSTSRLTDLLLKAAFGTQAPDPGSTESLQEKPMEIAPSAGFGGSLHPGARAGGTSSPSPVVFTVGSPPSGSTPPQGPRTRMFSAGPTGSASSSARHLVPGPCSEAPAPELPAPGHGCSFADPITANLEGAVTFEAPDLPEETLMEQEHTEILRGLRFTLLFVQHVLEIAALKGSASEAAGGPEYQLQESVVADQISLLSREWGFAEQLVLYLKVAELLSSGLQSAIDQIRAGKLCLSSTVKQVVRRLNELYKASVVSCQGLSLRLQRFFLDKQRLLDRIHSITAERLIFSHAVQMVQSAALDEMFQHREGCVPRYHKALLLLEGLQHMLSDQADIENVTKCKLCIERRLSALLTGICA
# Sequence of UniProt Q9Y6M4 (whole entry, looked up): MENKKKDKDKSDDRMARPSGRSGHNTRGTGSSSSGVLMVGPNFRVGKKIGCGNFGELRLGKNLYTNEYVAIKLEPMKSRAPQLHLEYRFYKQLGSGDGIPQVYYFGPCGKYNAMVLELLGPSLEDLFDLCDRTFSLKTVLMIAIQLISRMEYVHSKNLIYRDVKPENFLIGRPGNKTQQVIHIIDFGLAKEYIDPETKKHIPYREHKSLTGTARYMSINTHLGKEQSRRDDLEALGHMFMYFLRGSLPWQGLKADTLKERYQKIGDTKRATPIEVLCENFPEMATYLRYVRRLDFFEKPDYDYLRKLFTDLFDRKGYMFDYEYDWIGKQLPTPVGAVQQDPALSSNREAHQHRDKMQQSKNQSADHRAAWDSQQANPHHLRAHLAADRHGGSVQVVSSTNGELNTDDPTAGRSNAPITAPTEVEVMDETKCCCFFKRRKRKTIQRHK
# Sequence of UniProt Q9P0L2 (whole entry, looked up): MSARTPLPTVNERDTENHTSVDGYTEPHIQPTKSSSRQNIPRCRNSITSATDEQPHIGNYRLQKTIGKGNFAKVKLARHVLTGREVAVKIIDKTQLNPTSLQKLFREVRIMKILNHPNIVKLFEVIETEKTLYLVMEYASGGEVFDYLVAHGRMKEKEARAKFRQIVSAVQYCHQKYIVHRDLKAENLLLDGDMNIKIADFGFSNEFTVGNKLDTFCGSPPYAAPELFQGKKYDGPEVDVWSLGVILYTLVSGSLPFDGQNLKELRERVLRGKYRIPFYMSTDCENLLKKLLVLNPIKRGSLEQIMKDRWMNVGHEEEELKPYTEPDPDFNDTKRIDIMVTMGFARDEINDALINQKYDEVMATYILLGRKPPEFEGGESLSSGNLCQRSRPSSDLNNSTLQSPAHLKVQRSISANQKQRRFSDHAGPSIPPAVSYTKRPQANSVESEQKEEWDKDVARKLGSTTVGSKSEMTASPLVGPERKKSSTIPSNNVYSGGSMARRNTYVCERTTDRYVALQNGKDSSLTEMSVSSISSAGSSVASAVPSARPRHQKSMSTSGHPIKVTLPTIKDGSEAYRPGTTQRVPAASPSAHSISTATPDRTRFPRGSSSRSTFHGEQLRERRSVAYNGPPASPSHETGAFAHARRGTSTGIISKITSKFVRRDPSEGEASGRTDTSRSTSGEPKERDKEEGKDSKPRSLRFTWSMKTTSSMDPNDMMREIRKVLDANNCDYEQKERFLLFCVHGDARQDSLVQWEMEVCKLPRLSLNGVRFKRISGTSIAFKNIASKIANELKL
# Sequence of UniProt Q96NX5 (whole entry, looked up): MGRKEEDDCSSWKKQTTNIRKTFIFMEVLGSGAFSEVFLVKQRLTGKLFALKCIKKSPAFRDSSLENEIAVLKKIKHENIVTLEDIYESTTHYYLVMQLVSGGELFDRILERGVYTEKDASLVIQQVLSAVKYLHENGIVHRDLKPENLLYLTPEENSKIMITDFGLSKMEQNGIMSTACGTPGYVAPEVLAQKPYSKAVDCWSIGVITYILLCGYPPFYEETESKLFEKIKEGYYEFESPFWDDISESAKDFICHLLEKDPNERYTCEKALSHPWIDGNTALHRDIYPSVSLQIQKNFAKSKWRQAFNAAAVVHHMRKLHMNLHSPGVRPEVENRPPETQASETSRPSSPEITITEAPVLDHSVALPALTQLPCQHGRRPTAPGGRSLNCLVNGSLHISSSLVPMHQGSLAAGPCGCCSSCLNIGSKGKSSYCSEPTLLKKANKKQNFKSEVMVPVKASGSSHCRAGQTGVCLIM

# Block 1 — mode: antagonist
# Target: Beta-1 adrenergic receptor (ADRB1, Homo sapiens, UniProt P08588)
# Sequence of UniProt P08588 (whole entry, looked up): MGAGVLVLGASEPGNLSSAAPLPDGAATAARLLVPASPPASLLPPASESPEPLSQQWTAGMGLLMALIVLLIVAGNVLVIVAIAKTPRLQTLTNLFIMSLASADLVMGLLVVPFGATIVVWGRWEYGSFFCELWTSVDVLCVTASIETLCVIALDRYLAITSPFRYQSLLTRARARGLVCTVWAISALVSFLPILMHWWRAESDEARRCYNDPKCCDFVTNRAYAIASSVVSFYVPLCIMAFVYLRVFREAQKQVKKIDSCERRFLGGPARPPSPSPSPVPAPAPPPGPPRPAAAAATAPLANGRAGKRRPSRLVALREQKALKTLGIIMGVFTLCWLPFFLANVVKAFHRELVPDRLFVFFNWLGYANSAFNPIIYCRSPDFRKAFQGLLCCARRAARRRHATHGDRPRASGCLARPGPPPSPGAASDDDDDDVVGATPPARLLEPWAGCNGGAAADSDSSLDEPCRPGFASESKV
SMILES,pIC50
O=C1COC[C@H]([C@H](O)c2ccc(NC(=O)c3ccc(C(F)(F)F)cc3)cc2)N1,≤ 4.00
CN(c1cc(=O)c2ccnc(Nc3ccn(C)n3)c2o1)C1CCOCC1,≤ 4.00
CC(C)Oc1ccc(C(=O)N[C@H](CNC(=O)CN(C)C)Cc2ccc(-c3cn4cccc([C@H](C)O)c4n3)cc2)cc1Cl,≤ 4.00
Cn1c(COc2ccc(Cl)cc2)nnc1SCc1cc(=O)oc2cc(O)ccc12,≤ 4.00
CCOc1cc(N2CC=C(c3c[nH]c4ccc(OC)cc34)CC2)ncn1,≤ 4.00
Cc1ccc(/C=C(/C#N)c2nc(-c3cc4c(ccc5ccccc54)oc3=O)cs2)s1,≤ 4.00
Cc1ccc2c(Cn3nnc(-c4cccc(Cl)c4)n3)cc(=O)oc2c1,≤ 4.00
O=C(CCc1ccccc1)Nc1ccc([C@@H](O)[C@H]2COCC(=O)N2Cc2ccccc2F)cc1,≤ 4.00

# Block 2 — effect on: cell-free assay; technique: competition with immobilised ligand; concentration: 1 µM
# SMILES: O=C(NS(=O)(=O)c1ccc(NCC2CCOCC2)c([N+](=O)[O-])c1)c1ccc(N2CCN(Cc3ccc(C(F)(F)F)cc3-c3ccc(Cl)cc3)CC2)cc1Oc1cnc2[nH]ccc2c1
target,remaining binding
"Serine/threonine-protein kinase MARK1 (MARK1, Homo sapiens, UniProt Q9P0L2)",81%
"Platelet-derived growth factor receptor alpha (PDGFRA, Homo sapiens, UniProt P16234)",100%
"Calcium/calmodulin-dependent protein kinase type 1G (CAMK1G, Homo sapiens, UniProt Q96NX5)",92%
"Serine/threonine-protein kinase tousled-like 2 (TLK2, Homo sapiens, UniProt Q86UE8)",100%
"Calcium/calmodulin-dependent protein kinase type II subunit gamma (CAMK2G, Homo sapiens, UniProt Q13555)",88%
"Serine/threonine-protein kinase WNK1 (WNK1, Homo sapiens, UniProt Q9H4A3)",100%
"Protein kinase C epsilon type (PRKCE, Homo sapiens, UniProt Q02156)",100%
"Serine/threonine-protein kinase ULK1 (ULK1, Homo sapiens, UniProt O75385)",96%
"Casein kinase I isoform gamma-3 (CSNK1G3, Homo sapiens, UniProt Q9Y6M4)",75%
"Serine/threonine-protein kinase DCLK1 (DCLK1, Homo sapiens, UniProt O15075)",100%

# Block 3 — technique: protein-binding microarray; molecule type: hairpin DNA; medium: in vitro; concentration: not given; baseline: not given; direction: higher = stronger binding
# Target: Cyclic AMP-dependent transcription factor ATF-1, full length (ATF1, Homo sapiens, UniProt P18846, residues 1-271)
# Setting: whole hairpin DNA, median over replicate spots
# Residues (chain): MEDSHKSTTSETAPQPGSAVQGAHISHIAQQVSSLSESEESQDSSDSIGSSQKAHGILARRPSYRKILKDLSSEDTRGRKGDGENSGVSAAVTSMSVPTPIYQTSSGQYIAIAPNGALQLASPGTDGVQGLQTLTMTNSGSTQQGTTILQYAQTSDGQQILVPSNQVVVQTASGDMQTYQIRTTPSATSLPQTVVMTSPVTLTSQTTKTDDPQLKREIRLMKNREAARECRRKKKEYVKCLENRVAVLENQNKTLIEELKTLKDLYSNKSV
Oligonucleotide,median fluorescence [a.u.]
GAGGCCGGATGACTTCAGCCTCCTGGCTGAAGTCATCCGGCCTCACACTC,3200
GAGGCCGACGCGGTCGTGCCTCCTGGCACGACCGCGTCGGCCTCACACTC (5mC at 9 15 29 35),3610
GAGGCCGGCGACGTCGTGCCTCCTGGCACGACGTCGCCGGCCTCACACTC (5mC at 9 15 29 35 37),4610
GAGGCCGGCTGCGGTCAGCCTCCTGGCTGACCGCAGCCGGCCTCACACTC,3520
GAGGCCGGCTGACGCGAGCCTCCTGGCTCGCGTCAGCCGGCCTCACACTC (5mC at 29),4100
GAGGCCGACGACGCGGTGCCTCCTGGCACCGCGTCGTCGGCCTCACACTC (5mC at 9 29 30 35),4150
GAGGCCCGATGACGTCAGCCTCCTGGCTGACGTCATCGGGCCTCACACTC,16900
GAGGCCGACGACGTCGAGCCTCCTGGCTCGACGTCGTCGGCCTCACACTC (5mC at 9 15 29 35),3860

# Block 4 — target: CCNB3, cyclin fold, Cln2 fusion (human); technique: yeast growth competition, sequencing; medium: yeast; setting: weak parent motif; baseline: not given; direction: higher = stronger binding
# Starting sequence: MICAL3 docking peptide (human); LQLRRQLSFSEDS; partner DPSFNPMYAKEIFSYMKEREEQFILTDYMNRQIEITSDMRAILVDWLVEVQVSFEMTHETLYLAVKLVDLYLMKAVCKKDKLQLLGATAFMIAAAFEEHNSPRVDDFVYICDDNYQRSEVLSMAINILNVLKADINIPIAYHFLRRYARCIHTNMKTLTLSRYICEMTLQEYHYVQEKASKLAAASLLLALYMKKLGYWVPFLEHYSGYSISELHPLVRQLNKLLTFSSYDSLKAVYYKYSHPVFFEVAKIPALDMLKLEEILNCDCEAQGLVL
Variant,normalised enrichment score
LRLRRQLSFSEDS [Q2R],0.0549
LQLRMQLSFSEDS [R5M],-0.0539
LQLRRQLSFSEWS [D12W],0.204
LQLRRGLSFSEDS [Q6G],0.00798
LQLRRQKSFSEDS [L7K],-0.259
LQLRNQLSFSEDS [R5N],0.447
LVLRRQLSFSEDS [Q2V],0.537
LALRRQLSFSEDS [Q2A],-0.0465

# A few entries again (block 1):
SMILES,pIC50
CN(c1cc(=O)c2ccnc(Nc3ccn(C)n3)c2o1)C1CCOCC1,≤ 4.00
Cc1ccc2c(Cn3nnc(-c4cccc(Cl)c4)n3)cc(=O)oc2c1,≤ 4.00
